Results of several laboratories.
Numbered parts are unrelated; each lists some results of a single study. Positions count from the first letter of the parent shown.

Series 1
Target: Histone acetyltransferase KAT6A, winged helix 1, GST fusion (KAT6A, Homo sapiens, UniProt Q92794, residues 1-85)
Method: protein binding microarray
Molecule type: double-stranded DNA, one strand shown
Matrix: in vitro
Concentration: not given
Notes: 8-mer, flanks averaged, mean of 2 arrays, mostly near background
Reference: not given
Direction: higher = stronger binding
Construct (chain): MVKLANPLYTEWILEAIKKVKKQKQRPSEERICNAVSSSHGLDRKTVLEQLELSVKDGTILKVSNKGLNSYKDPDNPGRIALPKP
Sequence	E-score
ACTTATGC	-0.0979
AAGTAACA	-0.0935
ACGCCTGG	0.0289
CGGGGTTA	0.331
AACAGCTC	-0.0347

Series 2
Target: Sal-like protein 4, full length isoform B (SALL4, Homo sapiens, UniProt Q9UJQ4-2, residues 1-616)
Method: universal PBM
Molecule type: double-stranded DNA, one strand shown
Matrix: in vitro
Concentration: not given
Notes: 8-mer, flanks averaged, mean of replicates
Direction: higher = stronger binding
Construct (chain): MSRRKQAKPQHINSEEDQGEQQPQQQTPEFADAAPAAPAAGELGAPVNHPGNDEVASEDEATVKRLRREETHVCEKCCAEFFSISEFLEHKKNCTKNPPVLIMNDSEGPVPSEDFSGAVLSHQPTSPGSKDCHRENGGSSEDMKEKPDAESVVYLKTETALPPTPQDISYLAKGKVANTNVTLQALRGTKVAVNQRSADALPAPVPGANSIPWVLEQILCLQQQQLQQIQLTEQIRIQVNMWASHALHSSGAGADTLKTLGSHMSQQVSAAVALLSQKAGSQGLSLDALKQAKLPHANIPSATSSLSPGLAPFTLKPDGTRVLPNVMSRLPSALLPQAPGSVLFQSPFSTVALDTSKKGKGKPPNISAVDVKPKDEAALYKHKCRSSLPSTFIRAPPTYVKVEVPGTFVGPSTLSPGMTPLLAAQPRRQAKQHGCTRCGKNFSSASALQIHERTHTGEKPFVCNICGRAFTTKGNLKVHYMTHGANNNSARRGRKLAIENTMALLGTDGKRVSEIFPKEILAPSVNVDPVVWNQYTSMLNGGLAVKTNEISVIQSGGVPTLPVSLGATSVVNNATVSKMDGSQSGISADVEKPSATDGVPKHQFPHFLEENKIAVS
Sequence	E-score
CAGTAAAG	0.0902
ACACGGGG	-0.321
CTTTGGTA	-0.00312
TCGCTACA	-0.106

Further values, each from its own experiment
P1: RB1 docking peptide (human); PKPLKKLRFDIEG
P2: CDC25A docking peptide (human); PPHRRRLLFACSP
P3: E2F1 docking peptide (human); PPVKRRLDFETDH; partner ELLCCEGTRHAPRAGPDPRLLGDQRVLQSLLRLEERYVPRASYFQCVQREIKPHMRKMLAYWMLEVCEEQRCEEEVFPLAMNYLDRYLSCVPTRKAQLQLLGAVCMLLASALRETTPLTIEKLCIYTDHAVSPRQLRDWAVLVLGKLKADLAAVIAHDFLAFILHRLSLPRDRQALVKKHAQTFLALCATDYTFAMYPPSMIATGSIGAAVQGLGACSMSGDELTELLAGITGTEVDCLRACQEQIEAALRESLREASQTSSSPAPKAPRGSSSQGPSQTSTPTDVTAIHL
P4: CDC25A docking peptide (human); PPHRRRLLFACSP; partner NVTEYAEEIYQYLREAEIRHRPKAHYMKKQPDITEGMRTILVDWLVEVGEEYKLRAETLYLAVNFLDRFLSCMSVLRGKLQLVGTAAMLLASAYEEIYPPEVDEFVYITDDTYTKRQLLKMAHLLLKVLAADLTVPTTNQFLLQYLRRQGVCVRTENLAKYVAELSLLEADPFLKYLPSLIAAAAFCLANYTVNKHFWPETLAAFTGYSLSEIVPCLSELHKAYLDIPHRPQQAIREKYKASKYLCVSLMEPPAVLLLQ
Molecule	target	test	test system	conditions	scale	measurement	value
P1 P3T	CCNB1, cyclin fold, Cln2 fusion (human)	yeast growth competition, sequencing	yeast	weak parent motif	reference: not given, higher = stronger binding	normalised enrichment score	0.304
PhoQ, residues 284 288 289 292 302 303 AEGLLW	PhoP, residues 12 14 15 18 19 AQALL (Escherichia coli, UniProt P23836)	Sort-seq, refers to: YFP reporter	E. coli	PhoQ-PhoP variant library, added: 10 µM Mg2+	reference: high Mg2+ state, higher = stronger signaling	fold induction	5.33
P2 S12F	CCNA2, cyclin fold, Cln2 fusion (human)	yeast growth competition, sequencing	yeast	strong parent motif	reference: not given, higher = stronger binding	normalised enrichment score	1.7
P3 T11R	CCND3, cyclin fold, Cln2 fusion (human)	yeast growth competition, sequencing	yeast	weak parent motif	reference: not given, higher = stronger binding	normalised enrichment score	-0.0371
P4 S12Y	CCNA1, cyclin fold, Cln2 fusion (human)	yeast growth competition, sequencing	yeast	weak parent motif	reference: not given, higher = stronger binding	normalised enrichment score	0.275

A few entries again (series 2):
Sequence	E-score
CTTTGGTA	-0.00312
